Measured values collected from several papers.
Compare with care: the assays were run in different laboratories. ± marks the error that the study gave.
Alpha-amylase: Alpha-amylase (Bacillus subtilis, UniProt P00691)
CASP1: Caspase-1 (CASP1, Homo sapiens, UniProt P29466)
rhlR: HTH-type quorum-sensing regulator RhlR (rhlR, Pseudomonas aeruginosa, UniProt P54292)
RMS3: RMS3 (Lathyrus oleraceus, UniProt A0A109QYD3)
gdpP residues 84-659: gdpP, residues 84-659 (Bacillus subtilis, UniProt P37484)
xlnD: Exo-1,4-beta-xylosidase xlnD (xlnD, Emericella nidulans, UniProt Q5BAS1)

`CC(=O)NC(Cc1ccc(Br)c(Cl)c1)C(=O)N[C@@H](C)C(=O)N1CCC[C@H]1C(=O)N1CCC[C@H]1C(=O)N[C@@H](CCC(=O)O)C(=O)N[C@@H](Cc1c[nH]cn1)C(=O)N[C@@H](CO)C(=O)N[C@H](C(=O)N[C@@H](C)C(N)=O)[C@@H](C)OP(=O)(O)O` (stereo partly shown) gave an inhibition of 0.32% (Mitogen-activated protein kinase 8 (MAPK8, Homo sapiens, UniProt P45983); enzyme activity, inhibitor; 10 µM).
The Kd/Ki ratio of `O=C(Nc1cccc(-c2nn[nH]n2)c1)c1cc(-c2nn[nH]n2)cc(C(F)(F)F)c1` is reported as over 3 fold (Beta-lactamase CTX-M-14 (Escherichia coli, UniProt Q9L5C7); baseline: Kd over Ki).
`CC(C)P(=S)(NP(=[Se])(C(C)C)C(C)C)C(C)C` — result for “ΔG of binding”: -3.94 kcal/mol (Alpha-amylase; fluorescence quenching; concentration not given, pH 6.8, 310 K).
`CC(=O)N[C@@H](CC(C)C)C(=O)N[C@@H](CCC(=O)O)C(=O)N[C@@H](Cc1c[nH]cn1)C(=O)N[C@@H](CC(=O)O)C(=O)Nc1ccc2c(C)cc(=O)oc2c1` gave a Vmax of 2700 ± 85.5 RFU/min (CASP1; substrate cleavage, substrate, fluorogenic AMC release; enzyme 0.25 activity units/µL).
`CCCN1CCc2cccc3c2[C@H]1Cc1ccc(O)c(O)c1-3` gave a maximal inhibition of 89.9% (Carbamate kinase (Giardia intestinalis, UniProt A8BB85); enzyme activity, inhibitor, luminescence, ATP detection; Giardia lamblia).
`Nc1nc2ncc(CNc3ccc(C(=O)N[C@@H](CCC(=O)NCCOCCOCCNC(=O)CN4CCN5CCN(CC4)CC(=O)[O][Al]([18F])[O]C(=O)C5)C(=O)O)cc3)nc2c(=O)[nH]1` gave a nondisplaceable binding of under 1% (Folate receptor alpha (FOLR1, Homo sapiens, UniProt P15328); radioligand binding; KB xenograft homogenate; concentration not given, added: self-block 5 µM; baseline: total binding).
`COC(=O)C1C(OC(c2ccc(Cl)cc2)c2ccc(Cl)cc2)CC2CCC1N2C` (single isomer, unassigned): Ki “inactive” (rat 5-HT2 receptors; binding, radioligand displacement; inactive if below 75% at 10000 nM, added: [3H]ketanserin).
The activation of `O=C(N[C@H]1CCOC1=O)C1CCCC1` is reported as 91% (rhlR; reporter gene, agonist; Escherichia coli reporter strain; 100 µM; baseline: BHL 900 µM).
`NC(=NN=Cc1cccs1)[S][Ru+]([Cl])([P](c1ccccc1)(c1ccccc1)c1ccccc1)[P](c1ccccc1)(c1ccccc1)c1ccccc1.[Cl-]` has a Stern-Volmer constant of 80400 M⁻¹ (Albumin (ALB, Bos taurus, UniProt P02769); fluorescence quenching).
For `CC1=C(C)[C@H](Oc2c(F)cc3c(C)cc(=O)oc3c2F)OC1=O`, the kcat was 0.00307 ± 0.000283 s⁻¹ (RMS3; enzyme activity, substrate, pre-steady-state kinetics).
`Nc1ncnc2c1ccn2[C@@H]1O[C@@H]2COP(=O)(O)O[C@H]3[C@@H](O)[C@H](n4ccc5c(N)ncnc54)O[C@@H]3COP(=O)(O)O[C@H]2[C@H]1O` has a degradation rate of 2.3 ± 0.2 mol/min/mol enzyme (gdpP residues 84-659; substrate, HPLC; 100 µM, 37 °C, upper limit if undegraded 24 h, added: enzyme 1 µM).
The off-rate constant of `O=C(O)COc1ccc(Cl)cc1` is reported as 490 s⁻¹ (Chloride channel protein (Torpedo marmorata, UniProt P21564, C212S); open channel block, noise analysis; -140 mV).
`Cc1ccc2c(n1)c(-c1cccc(S(C)(=O)=O)c1)c(C)n2C/C(F)=C/CN` has a remaining activity of 6% (Lysyl oxidase homolog 2 (LOXL2, Homo sapiens, UniProt Q9Y4K0); enzyme activity, activity-based probe; healthy human volunteers; oral, 100 mg, 24 h after last dose, multiple ascending dose).
The potency ratio of `Cc1ccc(Nc2ncc3c(n2)N(C)C(=O)N(c2cc(NC(=O)c4cc(-n5cnc(C)c5)cc(C(F)(F)F)c4)ccc2C)C3)cn1` is reported as 2 fold (FGFR4/Transcription factor ETV6 (Homo sapiens, UniProt P22455+P41212, V550E); cell proliferation; Ba/F3 TEL-FGFR4 V550E; baseline: compound over GNF-7).
`Nc1ncnc2c1ncn2[C@@H]1O[C@@H]2COP(=O)(O)O[C@H]3[C@@H](O)[C@H](n4cnc5cncnc54)O[C@@H]3COP(=O)(O)O[C@H]2[C@H]1O` has a degradation rate of 1.1 ± 0.1 mol/min/mol enzyme (gdpP residues 84-659; substrate, HPLC; 100 µM, 37 °C, upper limit if undegraded 24 h, added: enzyme 1 µM).
`CC(=O)N[C@@H](Cc1c[nH]c2ccccc12)C(=O)N[C@@H](CCC(=O)O)C(=O)N[C@@H](Cc1c[nH]cn1)C(=O)N[C@@H](CC(=O)O)C(=O)Nc1ccc2c(C)cc(=O)oc2c1` gave a Vmax of 3500 ± 121 RFU/min (CASP1; substrate cleavage, substrate, fluorogenic AMC release; enzyme 0.25 activity units/µL).
`CCN(Cc1ccccc1)C(=O)CCc1nc(CN2CCN(C(=O)Cc3ccc(OC)c(OC)c3)CC2)no1` gave a current density of 21.6 ± 4.43 pA/pF (Potassium voltage-gated channel subfamily KQT member 2 (KCNQ2, Homo sapiens, UniProt O43526); potassium current, opener, whole-cell patch clamp; CHO stable; 1 µM, -10 mV).
`O=C(CCCC[C@@H]1SC[C@@H]2NC(=O)N[C@@H]21)NCCCCCCCCN1[C@H]2[C@H](O)[C@@H](O)[C@H](O[C@@H]3OC[C@@H](O)[C@H](O)[C@H]3O)C[C@H]21` (stereo partly shown) gave a kinact of 0.0002 s⁻¹ (xlnD; covalent inhibitor; Aspergillus nidulans; pH 4.5, ambient, added: 4MU-β-D-xyloside).
For `CC(C)OC(=O)[C@H](C)NP(=S)(Oc1ccccc1)c1ccccc1` (stereo partly shown), “DNS-NH2 formation rate constant” read 0.011 min⁻¹ (Carboxypeptidase Y (Saccharomyces cerevisiae, UniProt P00729); substrate, LC-MS/MS; 5 µM, added: carboxypeptidase Y 60 ng/mL).
`N=C(N)SCc1ccc(B(O)O)cc1`: IC50 “inactive” (Furin (FURIN, Homo sapiens, UniProt P09958); enzyme activity, inhibitor; up to 10 µM, added: pERTKR-AMC 5 µM).
With `O=C(Nc1cccc(-c2nn[nH]n2)c1)c1cc(-c2ccncn2)cc(C(F)(F)F)c1` the Kd/Ki difference was 2 to 3 fold (CTX-M-27 beta-lactamase; surface plasmon resonance).
`O=C1SCCC1NC(C(=O)NCc1ccccc1)C1CC1` (stereo not shown) has a Vmax of 0.37 ± 0.04 mM/s (Thiosulfate sulfurtransferase (TST, Homo sapiens, UniProt Q16762); activator; 17.1 µM, versus sodium thiosulfate, added: KCN 60 mM).
`CN(C)c1ncnc2c1ncn2[C@@H]1O[C@@H]2COP(=O)(O)O[C@H]3[C@@H](O)[C@H](n4cnc5c(N(C)C)ncnc54)O[C@@H]3COP(=O)(O)O[C@H]2[C@H]1O` gave a degradation rate of at most 0.001 mol/min/mol enzyme (gdpP residues 84-659; substrate, HPLC; 100 µM, 37 °C, upper limit if undegraded 24 h, added: enzyme 1 µM).
`CCOC(=O)/C=C/[C@H](C[C@@H]1CCNC1=O)NC(=O)[C@H](Cc1ccccc1)NC(=O)[C@H](COC(C)(C)C)NC(=O)OCc1ccccc1`: “FLuc reporter expression” “no effect” (Genome polyprotein, 3C protease (Encephalomyocarditis virus, UniProt P03304); protease activity, cell-based reporter).
`C[C@]12CC[C@H](O)CC1CCC1C2[C@H](O)C(=O)[C@]2(C)[C@@H](c3ccc(=O)oc3)CC[C@]12O` (stereo partly shown) has a Km of 40.2 ± 5.1 µM (mixed recombinant human SULT isoforms; sulfation, substrate).
With `O=C(Nc1ccc(-c2nnn[nH]2)cc1Cc1ccccc1)c1cccc(CC2CCCCC2)n1` the IC50 ratio was 3 to 4 fold (Capsid scaffolding protein, protease domain (Human herpesvirus 8 type P, UniProt Q2HRB6, R82Q); enzyme activity, inhibitor; pH 8; baseline: mutant over wild type).
`CN1/C(=C/C=C/C=C/C2=[N+](CCCCCC(=O)NCCCCCCCCN3[C@H]4[C@H](O)[C@@H](O)[C@H](O[C@@H]5OC[C@@H](O)[C@H](O)[C@H]5O)C[C@H]43)c3ccccc3C2(C)C)C(C)(C)c2ccccc21` (stereo partly shown) has a kinact of 0.00583 s⁻¹ (xlnD; covalent inhibitor; Aspergillus nidulans; pH 4.5, ambient, added: 4MU-β-D-xyloside).
The inhibitory concentration of `N#CC[C@H](N)C(=O)O` is reported as over 1 mM (Cystathionine beta-synthase (CBS, Homo sapiens, UniProt P35520); inhibitor, methylene blue; recombinant GST fusion).
The maximal activation of `O=C(NC1CCSC1=O)C1CCC1` (stereo not shown) is reported as 90% (rhlR; reporter gene, agonist, item: rhlI-gfp fluorescence; PAO-JP2 reporter).
For `CC1=CC(Oc2c(F)cc3c(C)cc(=O)oc3c2F)OC1=O` (racemic), the kcat was 0.0009 ± 0.00025 s⁻¹ (RMS3; enzyme activity, substrate, pre-steady-state kinetics).
With `Nc1ncnc2c1ncn2[C@@H]1O[C@H](COP(=O)(O)OP(=O)(O)OC[C@H]2O[C@@H](O)[C@H](O)[C@@H]2O)[C@@H](O)[C@H]1O` the ΔH was -9 ± 0.07 kcal/mol (Protein mono-ADP-ribosyltransferase PARP14, macrodomain 2 (PARP14, Homo sapiens, UniProt Q460N5); binding).
Under “number of binding sites”, `CC(C)P(=[Se])(NP(=[Se])(C(C)C)C(C)C)C(C)C` is recorded as 0.59 ± 0.03 (Alpha-amylase; fluorescence quenching; concentration not given, 298 K).
For `Nc1nc2c(c(=O)[nH]1)[n+](Cc1ccc(S(=O)(=O)F)cc1)cn2[C@@H]1O[C@H](COP(=O)(O)O)[C@@H](O)[C@H]1O`, “covalent labelling rate constant” read about 0.054 min⁻¹ (7-methylguanosine phosphate-specific 5'-nucleotidase (NT5C3B, Homo sapiens, UniProt Q969T7); covalent modifier, mass spectrometry).
`COC(=O)C=CCCC(NC(=O)c1ccncc1C(=O)O)C(=O)NC(C(=O)N1CC(=O)CC1C(=O)NC(C(=O)NC(C(N)=O)C1CCCCC1)C1CCCCC1)C(C)(C)C` (stereo not shown) has a selectivity ratio of 2790 (Protein-glutamine gamma-glutamyltransferase E (Homo sapiens, UniProt Q08188); transamidation activity, inhibitor; baseline: TG3 IC50 over FXIII-A2 IC50).

Some of these lines once more:
`CCOC(=O)/C=C/[C@H](C[C@@H]1CCNC1=O)NC(=O)[C@H](Cc1ccccc1)NC(=O)[C@H](COC(C)(C)C)NC(=O)OCc1ccccc1`: “FLuc reporter expression” “no effect” (Genome polyprotein, 3C protease (Encephalomyocarditis virus, UniProt P03304); protease activity, cell-based reporter).
`CN1/C(=C/C=C/C=C/C2=[N+](CCCCCC(=O)NCCCCCCCCN3[C@H]4[C@H](O)[C@@H](O)[C@H](O[C@@H]5OC[C@@H](O)[C@H](O)[C@H]5O)C[C@H]43)c3ccccc3C2(C)C)C(C)(C)c2ccccc21` (stereo partly shown) has a kinact of 0.00583 s⁻¹ (xlnD; covalent inhibitor; Aspergillus nidulans; pH 4.5, ambient, added: 4MU-β-D-xyloside).
